Results collected from several papers.
Target: Rho-associated protein kinase 2 (ROCK2, Homo sapiens, UniProt O75116)

| SMILES | assay | setting | scale | measurement | result |
| --- | --- | --- | --- | --- | --- |
| COc1c(Cl)cccc1Nc1c(-c2ccncc2C#C[C@@]2(C)CCCN2C(=O)/C=C/CN(C)C)[nH]c2c1C(=O)NCC2 | binding, competition with immobilised ligand | 3 µM | – | remaining binding | 86% |
| CC(=O)N1c2ccc(-c3ccc(CNC(=O)c4cn5cc(-c6cnc(N)nc6)nc(N6CCOCC6)c5n4)cc3)cc2CC[C@@H]1C | KINOMEscan | 10 µM | – | remaining binding | 70% |
| COc1ccc(NC(=O)Nc2ccc3c(c2)C(=O)N(C(C)CO)CC(C)C(CN(C)Cc2ccc4c(c2)OCO4)O3)cc1 (centres unmarked) | binding, competition with immobilised ligand | 10 µM | – | remaining binding | 100% |
| Cc1[nH]nc2c1N=C(c1ccccc1Cl)c1cnc(N3CCOCC3)cc1N2 | enzyme activity, inhibitor | 0.5 µM | – | inhibition | 0.5% |
| Cc1ccc(-c2c(/C=C(\C#N)C(=O)NC(C)C)n(CCCO)c3ncnc(N)c23)cc1 | cell-free assay, competition with immobilised ligand | 1 µM | – | remaining binding | 100% |
| CN1CCN(Cc2ccc(NC(=O)c3cccc(C#Cc4cnc(N)c5ncccc45)c3)cc2C(F)(F)F)CC1 | cell-free assay, competition with immobilised ligand | 0.5 µM | – | remaining binding | 54% |
| C=CC(=O)N1Cc2nc(-c3cc(-c4cc(Cl)cnc4Cl)c(F)cc3F)n(-c3ccncn3)c2C1 | cell-free assay, inhibitor | 1 µM | – | inhibition | -1.5% |
| CC1CCN(c2ccc(-c3n[nH]c(=O)c4ncccc34)cc2)CC1 | cell-free assay, competition with immobilised ligand | 10 µM | – | remaining binding | 27% |
| Cc1cccc(-c2ccc3nc(NC(=O)C4CCCO4)nn3c2)c1 (centres unmarked) | enzyme activity, Dundee kinase panel | 10 µM | – | remaining activity | 95% |
| NC(=O)C[C@H]1CCc2sc3ncnc(O[C@H]4CC[C@H](N5CCOCC5)CC4)c3c21 | enzyme activity, inhibitor | 10 µM | – | inhibition | 6% |
| Cc1c[nH]c2nccc(-c3ccc(C(=O)N[C@@H]4c5c(F)cc(C(F)F)cc5C[C@@H]4O)cn3)c12 | binding, competition with immobilised ligand | 3 µM | – | remaining binding | 0.2% |
| c1ccc2c(Nc3cc(C4CCC4)[nH]n3)nc(Nc3ccc4nc[nH]c4c3)nc2c1 | enzyme activity, inhibitor | 0.25 µM | – | remaining activity | 75% |
| Cc1ccc(C)c(-c2ccc3nc(NC(=O)C4CCCCC4)nn3c2)c1 | enzyme activity, Dundee kinase panel | 10 µM | – | remaining activity | 92% |
| Cc1cnc2nc1Nc1cccc(c1)COC/C=C/COCc1cc(ccc1OCCN1CCOCC1)N2 | binding, competition with immobilised ligand | 0.1 µM | – | remaining binding | 78% |
| Cc1cccc(O[C@H]2CCC[C@@H](C(C)CNCc3ccncc3)C2)c1 (relative stereo) | enzyme activity, inhibitor | 1 µM | – | inhibition | 7% |
| CNS(=O)(=O)Nc1nccc(Cc2c(C)c3ccc(Oc4ncccc4F)cc3oc2=O)c1F | binding, competition with immobilised ligand | 10 µM | – | remaining binding | 70% |
| CCn1cc(C(=O)O)c(=O)c2c(N)c(F)c(NC3CCCCC3)cc21 | kinase activity | 0.1 µM, with: ATP at Km | – | inhibition | 1.4% |
| COc1cc(Nc2nc(C)cc(-c3cnn4nc(OC)ccc34)n2)cc(C(F)(F)F)c1 | binding, competition with immobilised ligand | 1 µM | – | remaining binding | 100% |
| O=C=[N][Ru-4]123([n]4c5ccc(O)cc5c5c6c(c7cc(F)c[n+]1c7c54)C(=O)NC6=O)[S+]1CC[S+]2CC[S+]3CC1 (centres unmarked) | enzyme activity | 100 nM, human enzyme, with: 10 µM ATP | baseline: untreated | remaining activity | 99% |
| Nc1nc(Nc2ccccc2)sc1C(=O)c1ccccc1 | enzyme activity, inhibitor | 10 µM | – | remaining activity | 42% |
| C=CC(=O)Nc1cccc(-c2cnc3[nH]cc(C(=O)NC(C)(C)C)c3n2)c1 | kinase activity | 0.1 µM | – | inhibition | 41% |
| O=C(Cc1ccc(OCc2ccccc2)cc1)NC1(C(=O)O)CCN(C(=O)c2ccc(-c3cccc(Cl)c3)cc2)CC1 | enzyme activity, inhibitor | 10 µM | – | activity vs control | 109% |
| Nc1ncc(-c2cc(-c3cnn(CC(F)(F)F)c3)ncc2F)nc1C(=O)NC1CNCC(F)C1 (centres unmarked) | enzyme activity | 1 µM | baseline: DMSO control | remaining activity | 98.8% |

Excerpt of the above:
| SMILES | assay | setting | scale | measurement | result |
| --- | --- | --- | --- | --- | --- |
| COc1ccc(NC(=O)Nc2ccc3c(c2)C(=O)N(C(C)CO)CC(C)C(CN(C)Cc2ccc4c(c2)OCO4)O3)cc1 (centres unmarked) | binding, competition with immobilised ligand | 10 µM | – | remaining binding | 100% |
| C=CC(=O)N1Cc2nc(-c3cc(-c4cc(Cl)cnc4Cl)c(F)cc3F)n(-c3ccncn3)c2C1 | cell-free assay, inhibitor | 1 µM | – | inhibition | -1.5% |
| CCn1cc(C(=O)O)c(=O)c2c(N)c(F)c(NC3CCCCC3)cc21 | kinase activity | 0.1 µM, with: ATP at Km | – | inhibition | 1.4% |
